Measurements from different studies.
Every numbered part comes from another study and shows a few of its results, in no order. Changes are numbered by the printed parent chain.

Study 1 — method: protein binding microarray; molecule type: double-stranded DNA, one strand shown; matrix: in vitro; tested at: not given; relative to: not given; reading: higher = stronger binding
Target: Histone acetyltransferase KAT6A, winged helix 1, GST fusion (KAT6A, Homo sapiens, UniProt Q92794, residues 1-85)
Notes: 8-mer, flanks averaged, mean of 2 arrays, mostly near background
Target sequence (chain): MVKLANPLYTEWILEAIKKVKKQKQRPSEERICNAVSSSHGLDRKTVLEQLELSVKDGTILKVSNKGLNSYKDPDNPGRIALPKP
Sequence | E-score
ATTCGACA | -0.169
GCCACGCA | 0.246
ATCACCTC | -0.0858
CGGATTAG | 0.204
CCCTCAGC | 0.0205
CATATGAG | -0.0997
AAGACTCC | -0.0806
AGATGTCG | -0.0217
ACCGGACA | -0.082
ATGAAACA | -0.164
CACTACGC | 0.0789
CCGATTAC | 0.0868
GCACTCAA | -0.035
CAAGTATC | -0.207
ACTTCATG | -0.0349
ACGCCATA | 0.078
GACGGTAA | 0.322
GGCCCCCA | -0.17

Study 2 — target: CREM, bZIP domain (human); method: DHFR protein complementation; matrix: yeast; relative to: wild-type JUN-FOS pair; reading: higher = stronger binding
Notes: single substitutions, most at no-binding floor
Parent: JUN, bZIP domain (human); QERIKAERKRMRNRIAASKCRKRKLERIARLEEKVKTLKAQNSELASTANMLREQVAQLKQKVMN; partner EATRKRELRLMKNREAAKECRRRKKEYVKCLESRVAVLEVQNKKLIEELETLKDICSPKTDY
Variant | binding fitness
L52W | -1.46 natural log
R53V | -1.46 natural log
S47D | -1.41 natural log
K39S | -1.39 natural log
T48W | -1.48 natural log
A49T | -1.49 natural log
R30P | -1.43 natural log
R30Q | -1.45 natural log
V56P | -1.52 natural log
M51S | -1.44 natural log
L45M | -1.49 natural log
E33G | -1.5 natural log
A57W | -1.37 natural log
A40T | -1.52 natural log
S47C | -1.49 natural log
R53L | -1.38 natural log
A29W | -1.47 natural log
Q41V | -1.47 natural log
A40V | -1.49 natural log
K39A | -1.31 natural log
Q41M | -1.41 natural log

Study 3 — method: RNA Bind-n-Seq; molecule type: RNA; matrix: in vitro; tested at: not given; relative to: input RNA pool; reading: higher = stronger binding
Target: RING finger protein unkempt homolog, zinc fingers 1-6, GST-SBP tag (UNK, Homo sapiens, UniProt Q9C0B0, residues 30-357)
Sequence of UniProt Q9C0B0 (30-357, looked up): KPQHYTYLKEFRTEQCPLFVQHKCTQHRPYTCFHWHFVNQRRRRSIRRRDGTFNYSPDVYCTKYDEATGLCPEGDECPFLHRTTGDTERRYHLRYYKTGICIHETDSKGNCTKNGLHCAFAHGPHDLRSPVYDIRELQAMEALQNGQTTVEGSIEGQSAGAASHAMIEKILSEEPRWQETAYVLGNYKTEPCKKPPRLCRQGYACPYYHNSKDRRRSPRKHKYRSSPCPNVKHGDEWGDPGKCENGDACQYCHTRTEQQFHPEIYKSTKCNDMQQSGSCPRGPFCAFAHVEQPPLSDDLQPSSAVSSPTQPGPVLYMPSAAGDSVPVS
Notes: RNA with constant flanks, human-mouse chimeric sites, ends assumed
Constant ends, left off below: GGGAGUUCUACAGUCCGACGAUC … CAACAGAGGAUUGAGCAUCA
Sequence | bound/input enrichment [ratio]
GUGUCCUGCUUUCAACUUAAAUCACUGCAUUUUUACUACUGUUCUGUGAGCAUCAGGACUGUAGCGCUGUGUCACCACAGAUGAGAACAGAAGCAGCCUUUCUGUGGAGGGUGGGAAUGA | 0.203
GUAAUGUUUAUUCAUUUCUUAUUUUUAUAUAGCUAGAUAAAUAUUGUUAGUCUUAGACAAUAGCUCACAUUUUUUGAGAAGCAUGCCCUCCCUGUCCAUUUGUCUUAUAACAUGACCCAG | 13.9
GUUGCCAGCUUCCGGUUCCGUUGGGCUCGGUUCUCUCCUGAGCUACGUGUCUCUACGCUCUCAAUCCGCCAUCCAACGGCAGUCAUGCAGGUAAUGCUGCAGUUUGUGCCCAGCCGGCAG | 0.104
CCCCAAUACCAUUUGCAAGAGUUGGAACUGCAUUCUUUUUUUAAAAAACAUGUAUACAUUUUAGGGCUGUAGAUUUAUUUUCCUGGUUUUGUUUUUCAUUGCUGACUUUUGAGCACAGAA | 0.898
UCCCAAAUCCAGCAGCUAGAAGGAGCCUUGAGACAAACACUCCACACACAGGGAAGGCAAUAGCUUUGUACAUUGGUUUACAUUUUUUCCCCCUGUGGAUUUUUCUAGAGGUCAUAGUGC | 0.58
GUGUCCUGCUUUCAACUUAAAUCACUGCAUUUUUACUACUGUUCUGUGAGCAUCAGGACUGUAGCGCUGUGUCACCACAUGAGAGUUCAGAAGCAGCCUUUCUGUGGAGAGUGAGAAUGA | 0.132
UUUCUACUGCAGCAGACCAUGCUACGAAUUAAGGAUCCUAAGAAGUCCCUGGAUUUUUAUACGAGGGUUCUUGGACUGACCCUCCUGCAGAAGCUUGACUUCCCUGCUAUGAAGUUCUCG | 0.168
AAUAGAGGAUCCACCUCCCAAAGUGCUCUGGAGCUCUGUGUGGCCACCACACCUAACUUGAUGGAUAUAUAUUUUUUUUAAUAUGAAUCUUCCUGUUCGUCCAGGGAAGAAAGAUUUGUU | 1.24

Study 4 — method: RNA Bind-n-Seq; molecule type: RNA; matrix: in vitro; tested at: 365 nM; relative to: no-protein control; reading: higher = stronger binding
Target: RNA binding protein fox-1 homolog 2, RRM domain, GST-SBP tag (RBFOX2, Homo sapiens, UniProt O43251-10, residues 100-194)
Notes: natural RNA segment, single round, ends assumed
Constant ends, left off below: GGGAGUUCUACAGUCCGACGAUC … UGGAAUUCUCGGGUGCCAA
Construct (chain): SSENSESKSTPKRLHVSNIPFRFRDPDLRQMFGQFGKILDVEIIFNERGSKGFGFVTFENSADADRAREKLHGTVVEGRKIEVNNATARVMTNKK
Sequence | RBNS enrichment (R)
CACACACACACACACACACACAAUGGGAGUGGGAUUAAGGUUUUCAUAAAUCUCAGCCAAUGGUCUUCAAAGCCUUUACCUGAAGAGACCACACUCCAACACGGAGCUGG | 0.819
CUUACUAAUGAUUCAUAAUGUGAUCUUGAGAAAUGUGUUUAAGCUUUCUGAGUCUUAACCUCCUUGUCUCUAAAAUGGGCAAUUAAAACAAUCUUCAAGAGCCCUGUAAG | 0.286
UGCAGAGAGCAAUGAUAGCAAAUAACGUACGAAUGUUUUACAUCAAAGGACAUCCACAUCAGUUGGAAGACUUUGAGUUUUGUUCUUAGGAAACCCACUUUAGUUGAAUG | 1.27
CCUCCAAACCUGGACUCUGGGACUUAGGCCCCCUUAAAUCUAGACUUCUCUUUAUAGGUUUCAGGUCUCCUAUGGGUGCCUGGGAAGUCCUUGAAAGUGGACUGUUCUCA | 0.664
AGCCCCGAAGCUGCCCCCUCCCCUUUUUGUAUAAUUUAAUAAAGAAACGGUCGCGCUUCUGUUUUUACCCGUCUCCUGCUUUCCCGCAGUCCGGUCAGUGCAUGAAAGGG | 1.84
UGUAUAUGUGUGUGUAUGUGUAGGGGCAGCCCCUAUCUCUGGCUCCUUUUCCACCCUUCUCCCCAGUGCCUUCCUCGUCCUGGUGGAGCUGAGGCCUACUCCUCCCCAGU | 2.48
CCGUUGGCCAACAGCCCUUUCACUUACCAUCCCUGCCUCCCCCGUCCUGUUCCCUUUGACUUCAGCUGCCUGAAACAGCCAUGUCCAAGUUCUUCACCUCUAUCCAAAGG | 0.507
UGUCAGUCACAUAGGACAGGAUAUUUAAUGUACUUUUCCUUUCUCUGAGCCACAGUUAGCUGCUAUUUUGAGGCAUCCAAGGGGAAGUGGGCUGAAAAACGCCACACUCA | 0.447

Excerpt of the above (study 1):
Sequence | E-score
AGATGTCG | -0.0217
ACCGGACA | -0.082
ATGAAACA | -0.164
CACTACGC | 0.0789
CCGATTAC | 0.0868
GCACTCAA | -0.035
CAAGTATC | -0.207
ACTTCATG | -0.0349
ACGCCATA | 0.078
